Experimental data of several laboratories.
Numbers after ± are the reported error.
PLK1 polo-box: Serine/threonine-protein kinase PLK1, polo-box (PLK1, Homo sapiens, UniProt P53350)
Chain of UniProt P53350 (whole entry, looked up): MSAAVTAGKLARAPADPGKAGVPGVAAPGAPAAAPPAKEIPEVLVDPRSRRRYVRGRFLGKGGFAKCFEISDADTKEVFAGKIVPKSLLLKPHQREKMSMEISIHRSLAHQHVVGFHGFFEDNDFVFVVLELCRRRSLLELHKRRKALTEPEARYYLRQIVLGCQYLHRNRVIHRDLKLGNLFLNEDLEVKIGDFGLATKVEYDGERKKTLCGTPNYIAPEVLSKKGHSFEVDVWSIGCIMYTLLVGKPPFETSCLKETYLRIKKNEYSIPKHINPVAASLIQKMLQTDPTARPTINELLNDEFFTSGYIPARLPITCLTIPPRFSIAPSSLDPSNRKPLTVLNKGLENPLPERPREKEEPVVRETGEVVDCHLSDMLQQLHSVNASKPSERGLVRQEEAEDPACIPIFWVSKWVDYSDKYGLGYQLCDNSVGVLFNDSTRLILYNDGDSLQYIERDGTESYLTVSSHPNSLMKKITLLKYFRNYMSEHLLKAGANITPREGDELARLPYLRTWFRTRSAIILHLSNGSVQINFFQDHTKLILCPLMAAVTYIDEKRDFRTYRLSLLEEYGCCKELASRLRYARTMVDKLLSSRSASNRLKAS
PLK1 polo-box domain: Serine/threonine-protein kinase PLK1, polo-box domain (PLK1, Homo sapiens, UniProt P53350)
PLK1: Serine/threonine-protein kinase PLK1 (PLK1, Homo sapiens, UniProt P53350)

`CC(=O)N[C@@H](Cc1c[nH]cn1)C(=O)N[C@@H](C)C(=O)N1CCC[C@H]1C(=O)N1CCC[C@H]1C(=O)N[C@@H](CC(C)C)C(=O)N[C@@H](Cc1c[nH]cn1)C(=O)N[C@@H](CO)C(=O)N[C@H](C(=O)N[C@@H](C)C(N)=O)[C@@H](C)OP(=O)(O)O` has a Kd of 33.3 nM (PLK1 polo-box; binding, MST).
`CSCC[C@H](NC(=O)[C@@H]1CCCN1C(=O)CNC(=O)[C@H](C)NC(=O)[C@@H](N)CCSC)C(=O)N[C@@H](CCC(N)=O)C(=O)N[C@@H](CO)C(=O)N[C@H](C(=O)N1CCC[C@H]1C(=O)N[C@@H](CC(C)C)C(=O)N[C@@H](CC(N)=O)C(=O)NCC(=O)N[C@@H](C)C(=O)N[C@@H](CCCCN)C(=O)N[C@@H](CCCCN)C(=O)O)[C@@H](C)OP(=O)(O)O` gave an IC50 of 850 nM (PLK1 polo-box domain; inhibitor).
With `CC(=O)N(CCCCCCc1ccccc1)CC(=O)N[C@@H](CC(C)C)C(=O)N[C@@H](Cc1c[nH]cn1)C(=O)N[C@@H](CO)C(=O)N[C@H](C(N)=O)[C@@H](C)OP(=O)(O)O` the IC50 was 15 nM (PLK1 polo-box; ligand displacement, FP).
`CC(C)C[C@@H]1NC(=O)CCCCCCCCCCCCCC[n+]2cc(n(CCCCCCCCc3ccccc3)c2)C[C@@H](C(=O)N[C@@H](CO)C(=O)N[C@H](C(N)=O)[C@@H](C)OP(=O)([O-])O)NC1=O` has an IC50 of 13000 nM (PLK1 polo-box domain).
For `CC(=O)N[C@@H](Cc1ccccc1)C(=O)N[C@@H](C)C(=O)N1CCC[C@H]1C(=O)N1CCC[C@H]1C(=O)N[C@@H](CCC(=O)O)C(=O)N[C@@H](Cc1c[nH]cn1)C(=O)N[C@@H](CO)C(=O)N[C@H](C(=O)N[C@@H](C)C(N)=O)[C@@H](C)OP(=O)(O)O`, the Kd was 14.4 nM (PLK1 polo-box; binding, MST).
The IC50 of `CC[C@@H]1C(=O)N(C)c2cnc(Oc3ccc(C(=O)NCCCC[C@H](NC(=O)COCCOCCNC(=O)COCCOCCNC(=O)COCCOCCNC(=O)COCCOCCNC(=O)[C@@H](NC(=O)[C@H](CO)NC(=O)[C@H](Cc4cncn4CCCCCCCCc4ccccc4)NC(=O)[C@H](CC(C)C)NC(=O)[C@@H]4CCCN4C(C)=O)[C@@H](C)OP(=O)(O)O)C(N)=O)cc3OC)nc2N1C1CCCC1` is reported as 33 ± 3.5 nM (PLK1; enzyme activity, inhibitor).
`CC(=O)N1CCC[C@H]1C(=O)N[C@@H](CC(C)C)C(=O)N[C@H]1C[C@H](CCCCCCCCc2ccccc2)C(=O)NCCCC[C@@H](C(N)=O)NC(=O)[C@H]([C@@H](C)OP(=O)(O)O)NC(=O)[C@H](CO)NC1=O` gave an IC50 of 5 ± 0.4 nM (PLK1 polo-box domain; enzyme activity, inhibitor).
With `CC(C)C[C@@H]1NC(=O)CCCCCCCCCCCC[n+]2cc(n(CCCCCCCCc3ccccc3)c2)C[C@@H](C(=O)N[C@@H](CO)C(=O)N[C@H](C(N)=O)[C@@H](C)OP(=O)([O-])O)NC1=O` the IC50 was 240 nM (PLK1 polo-box domain).
With `CC[C@@H]1C(=O)N(C)c2cnc(Oc3ccc(C(=O)NCCCC[C@H](NC(=O)COCCOCCNC(=O)COCCOCCNC(=O)COCCOCCNC(=O)COCCOCCNC(=O)[C@@H](NC(=O)[C@H](CO)NC(=O)[C@H](Cc4cncn4CCCCCCCCc4ccccc4)NC(=O)[C@H](CC(C)C)NC(=O)[C@@H]4CCCN4C(C)=O)[C@@H](C)OP(=O)(O)O)C(N)=O)cc3OC)nc2N1CC(C)C` the IC50 was 60 ± 2.9 nM (PLK1; enzyme activity, inhibitor).
For `CC(C)C[C@H](NC(=O)CCCCCCCCc1ccccc1)C(=O)N[C@@H](Cc1c[nH]cn1)C(=O)N[C@@H](CO)C(=O)N[C@H](C(N)=O)[C@@H](C)OP(=O)(O)O`, the IC50 was 19 nM (PLK1 polo-box; ligand displacement, FP).
`CC(=O)N[C@@H](CC(C)C)C(=O)N[C@@H](C)C(=O)N1CCC[C@H]1C(=O)N1CCC[C@H]1C(=O)N[C@@H](CC(C)C)C(=O)N[C@@H](Cc1c[nH]cn1)C(=O)N[C@@H](CO)C(=O)N[C@H](C(=O)N[C@@H](C)C(N)=O)[C@@H](C)OP(=O)(O)O` has a Kd of 40.4 nM (PLK1 polo-box; binding, MST).
